Results from different studies.
Each line is one published result; not all experiments were run side by side. ± gives the spread as reported.

Compound | assay | system | setting | scale | quantity | value
CCCCCCCCC[C@H](O)CC(=O)CCc1ccc(O)c(OC)c1 |  | rat, small intestine site 4 contents | oral, dose not given, 4 h, β-glucuronidase treated | baseline: ingested amount | recovery | 2.93%
CC(C)(C)NC(=O)[C@@H]1C[C@@H]2CCCC[C@@H]2CN1C[C@@H](O)[C@H](Cc1ccccc1)NC(=O)[C@H](CC(N)=O)NC(=O)c1ccc2ccccc2n1 | equilibrium dialysis | cellulose membrane, cell-free | pH 7.4, added: 0.1% w/w Pluronic P85 |  | effective permeability | 36 ± 5 ×10⁻⁶ cm/s
Cc1cc(Nc2ncc(Cl)c(Nc3ccccc3S(=O)(=O)C(C)C)n2)c(OC(C)C)cc1C1CCNCC1 | measured: total drug | human, plasma | oral, 450 mg/day with food, after daily dose 9 |  | AUC(tau) at steady state | 22.5 µM·h
CC(C)(Oc1ccc(C(=O)c2ccc(Cl)cc2)cc1)C(=O)O | shake-flask | PEG400 | 37 °C |  | thermodynamic solubility | 54.8 ± 2.69 mg/g
N[C@@H](CC(=O)N1CCn2c(nnc2C(F)(F)F)C1)Cc1cc(F)c(F)cc1F |  | healthy Korean subjects, plasma | oral, 100 mg single dose, ABCB1 C3435T CT+TT |  | AUC(0-2 h) | 473 ± 195 ng·h/mL
O=C(Nc1ccc([N+](=O)[O-])cc1Cl)c1cc(Cl)ccc1O | shake-flask | polysorbate 80 | 37 °C |  | thermodynamic solubility | 30.2 ± 1.77 mg/g
Nc1ncn([C@H]2C[C@H](O)[C@@H](CO)O2)c(=O)n1 |  | male CD-1 mice, plasma | oral, 167 mg/kg THU + 0.4 mg/kg, day 58 |  | AUC(0-180) | 1.99 µM·h
C[C@H](CS)C(=O)N1CCC[C@H]1C(=O)O |  | male Hartley guinea pig, anaesthetized | intravenous infusion, 10 mg/kg, 10 min infusion | baseline: baseline | QTc change | -1.3 ± 1.4%
CS(=O)(=O)n1cc2c(n1)CN([C@H]1CO[C@H](c3cc(F)ccc3F)[C@@H](N)C1)C2 |  | human male | oral |  | QTc slope vs plasma concentration | 0.3 ms/µM
CCCCOC(=O)N1CCN(C(=O)[C@H](CP(=O)(O)O)NC(=O)c2cc(N3CC[C@H](OC)C3)nc(-c3ccccc3)n2)CC1 |  | healthy human, plasma | subcutaneous, 4 mg, placebo i.v. | geometric mean | Vd/F | 52.2 L
COCCN1C(=O)c2ccccc2NC12C(=O)N(C)c1ccc(Br)cc12 (stereo not drawn) | shake flask | aqueous buffer | pH 7.4 |  | logD | 2.4
COc1ccc(Cl)cc1C(=O)NCCc1ccc(S(=O)(=O)NC(=O)NC2CCCCC2)cc1 | shake-flask | PEG400 | 37 °C |  | thermodynamic solubility | 8.25 ± 0.32 mg/g
Cc1cc(Nc2cc3ncccc3c(N[C@@H]3C[C@H]4CC[C@@H](C3)N4CCC#N)n2)n[nH]1 |  | Sprague-Dawley rat, female, plasma | oral, 100 mg/kg/day, last day of 4 weeks |  | Cmax | 13.1 ng/mL
CCc1cn([C@@H]2O[C@H](CO)[C@@H](O)[C@H]2O)c2ncnc(C)c12 | metabolic stability | mouse, liver microsomes | 15 min |  | compound remaining | 99%
COc1cnc(NS(=O)(=O)c2ccc(NC(=O)/C=C\c3ccc(OC(C)=O)c(OC(C)=O)c3)cc2)nc1 |  | n-octanol/PBS | pH 7.4 |  | log P | 1.31
Cc1nc2cccc(OCC(C)(C)C(=O)NC(C)C)c2c(N)c1C(=O)O |  | male Sprague-Dawley rat, plasma | dietary, 100 mg/kg/day, day 90 |  | Cmax | 231 ng/mL
Cn1cc(-c2cn3nccc3c(-c3cnn([C@]4(CC#N)C[C@@H](C#N)C4)c3)n2)cn1 |  | healthy Japanese human, plasma | 400 mg once daily, day 10, multiple dose, fed, geometric mean |  | dose-normalized Cmax | 2.2 ng/mL/mg
O=C(NC1CCNCC1)c1n[nH]cc1NC(=O)c1c(Cl)cccc1Cl |  | human patients, plasma | intravenous, cycle 1 day 1, after onalespib |  | t_half | 600 min

For quick reference, copied from above:
Compound | assay | system | setting | scale | quantity | value
CC(C)(C)NC(=O)[C@@H]1C[C@@H]2CCCC[C@@H]2CN1C[C@@H](O)[C@H](Cc1ccccc1)NC(=O)[C@H](CC(N)=O)NC(=O)c1ccc2ccccc2n1 | equilibrium dialysis | cellulose membrane, cell-free | pH 7.4, added: 0.1% w/w Pluronic P85 |  | effective permeability | 36 ± 5 ×10⁻⁶ cm/s
